Measured values gathered from unrelated publications.
Parts stem from different laboratories: compare values within a part only. Changes are numbered by the printed parent chain.

Set 1 — technique: RNA Bind-n-Seq; molecule type: RNA; sample: in vitro; tested at: 200 nM; notes: whole 134-nt RNA, ends assumed; with: 150 mM LiCl; relative to: input library; direction: higher = stronger binding; each molecule: 7-deaza-guanosine replaces G
Target: Fragile X messenger ribonucleoprotein 1, C-terminal low-complexity region (Fmr1, Mus musculus, UniProt P35922)
Shared flanks, not repeated: GGGAGUUCUACAGUCCGACGAUC … UGGAAUUCUCGGGUGUCAAGG
Strand | log2 enrichment
CAAGUCCUGUGCUACACAUCGUAUGUACCGAAUCGGGUUUGGGGUUUGGGUUUGGAAAGUAUUAUGUUACGCCGUUCGGAUCUGCACUUC | -1.38
UCAAGUCCUGUGCUACACAUCGUAUGUACCGAAUCGGUUGGGGUUGGGUUGGGGAAAGUAUUAUGUUACGCCGUUCGGAUCUGCACUUCC | -0.684
UAACUUUAGAGGAGGAUCUGCUGGAUAUGGCAGUGGACGUGGAUUUGGGGAUGGCUAUAAUGGGUAUGGAGGAGGACCUGGAGGUGGCAA | 0.268
AGUCCUGUGCUACACAUCGUAUGUACCGAAUCAAAUUUUUAAAUUUAAAUUUUUAAAAAAGUAUUAUGUUACGCCGUUCGGAUCUGCACU | -3.16
GGUGAUGGUCAACAAGCCUCAACUGCCUCUGCUACAACUGCCAAGUUCCCCGCGUCCCACCCUCCUCUAGGUGCUCCAAGGGACCACCGG | 1.02
ACCAUGCAGGUGGGCAUCUUUGGGAAGUGGGGCAAGGGGGGGAAAAGGAGGGGGGUAACACUUUGGGAACAGGUGGUCCCAGGUCGUUUC | 1.16
UGCAGGGUCUGGGUAGCAGCUGGGCUUCCAGCUUUCUCCUUGCACCUGACUUGGGCUUUUUUCUCCUCACAGGAUGGGCCUUGACGGCAU | -2.38
CAAGUCCUGUGCUACACAUCGUAUGUACCGAAUCGGGAAAGGGUUUGGGUUUGGGAAAGUAUUAUGUUACGCCGUUCGGAUCUGCACUUC | -1.33
CAGUUUAAGAGGGGUUUCAUGCAAGGGCAUGUAAAUAGACAAGAAAAAGAAGAAAAAGAAGCAAUAUAUAAAGAACGUUGGCCAGAUUAU | 0.648
UCCUCAAGUCCUGUGCUACACAUCGUAUGUACCGAAUCGGAGGGAGGGAGGGAAAGUAUUAUGUUACGCCGUUCGGAUCUGCACUUCCAG | -0.404
UCCUGUGCUACACAUCGUAUGUACCGAAUCGGGGUUUUUGGGGAAAGGGGUUUUUGGGGAAAGUAUUAUGUUACGCCGUUCGGAUCUGCA | -0.713

Set 2 — technique: DHFR PCA, deep sequencing; sample: yeast; with: (+)-ABA 0.39 µM; relative to: wild-type fitted maximum; direction: higher = stronger binding
Target: ABI1, truncated, D143A, DHFR fusion (Arabidopsis thaliana)
Notes: methotrexate growth selection, single substitutions
Starting sequence: PYL1, truncated, DHFR fusion (Arabidopsis thaliana); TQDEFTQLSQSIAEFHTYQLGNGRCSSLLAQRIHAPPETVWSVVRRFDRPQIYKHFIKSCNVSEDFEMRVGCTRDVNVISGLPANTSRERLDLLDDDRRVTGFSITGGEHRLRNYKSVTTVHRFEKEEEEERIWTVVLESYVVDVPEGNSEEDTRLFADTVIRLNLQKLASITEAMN; partner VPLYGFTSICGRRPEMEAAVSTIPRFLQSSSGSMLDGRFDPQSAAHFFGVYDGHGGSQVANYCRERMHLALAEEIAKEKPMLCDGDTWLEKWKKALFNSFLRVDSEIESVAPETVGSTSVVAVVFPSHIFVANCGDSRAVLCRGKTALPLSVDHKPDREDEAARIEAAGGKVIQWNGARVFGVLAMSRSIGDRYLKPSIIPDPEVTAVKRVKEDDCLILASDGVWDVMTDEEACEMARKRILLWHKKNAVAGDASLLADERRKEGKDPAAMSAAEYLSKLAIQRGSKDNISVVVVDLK
Substitution | relative binding score [%]
T119V | -4.67
V121T | -11.8
R24V | 23.2
R113I | 26.3
Q10A | 60.8
T73G | -6.66
R155S | -4.45
R113L | 30
R45D | -5.6
N177S | 45.3
R74I | -9.18
R111G | -0.0189
T106P | -10
F66E | 14.9
V40W | 1.24
Q31S | 0.613
G81F | -10.1
R90Q | 16.5
Q51N | 2.81

Set 3 — target: UBE2M UBC core domain (UniProt P61081); technique: yeast two-hybrid; sample: yeast; notes: mostly zero background; relative to: not given; direction: higher = stronger interaction
B1: IRF2BPL RING domain (UniProt Q9H1B7); chain SPMANSGPLCCTICHERLEDTHFVQCPSVPSHKFCFPCSRESIKAQGATGEVYCPSGEKCPLVGSNVP
B2: TRIM63 RING domain (UniProt Q969Q1); chain PMENLEKQLICPICLEMFTKPVVILPCQHNLCRKCANDIFQAANPYWTSRGSSVSMSGGRFRCPTCRHEVIMDRHGV
B3: ZNF598 RING domain (UniProt Q86UK7); chain AAAPERGGGSCVLCCGDLEATALGRCDHPVCYRCSTKMRVLCEQRYCAVCREELRQVVFGK
B4: ARK2C RING domain (UniProt Q6ZSG1); chain EGEESDTDEKCTICLSMLEDGEDVRRLPCMHLFHQLCVDQWLAMSKKCPICRVDIETQLGAD
B5: MID1 RING domain (UniProt O15344); chain METLESELTCPICLELFEDPLLLPCAHSLCFNCAHRILVSHCATNESVESITAFQCPTCRHVITLSQRGL
Residues (chain): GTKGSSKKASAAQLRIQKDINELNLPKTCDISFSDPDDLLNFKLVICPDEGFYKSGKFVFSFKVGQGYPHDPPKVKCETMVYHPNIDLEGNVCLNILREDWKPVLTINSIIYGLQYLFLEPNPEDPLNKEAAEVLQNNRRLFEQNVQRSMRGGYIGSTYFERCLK
Molecule | lacZ reporter activity
YWAMDSTFELCKICAESNKDVKIEPCGHLLCSCCLAAWQHSDSQTCPFCRCEIKGWEAVS (CBLC RING domain (UniProt Q9ULV8)) | 0
KTLSRFGIQPCSICLGDAKDPVCLPCDHVHCLRCLRAWFASEQMICPYCLTALPDEFSPA (RNF213 RING domain (UniProt Q63HN8)) | 0
PEELQAMDNVCIICREEMVTGAKRLPCNHIFHTSCLRSWFQRQQTCPTCRMDVLRASLPA (SYVN1 RING domain (UniProt Q86TM6)) | 0
RLTMMWEEVTCPICLDPFVEPVSIECGHSFCQECISQVGKGGGSVCPVCRQRFLLKNLRP (TRIM21 RING domain (UniProt P19474)) | 0
DAIPSLSECQCGICMEILVEPVTLPCNHTLCKPCFQSTVEKASLCCPFCRRRVSSWTRYH (RNF168 RING domain (UniProt Q8IYW5)) | 0
FPEHFVKSISCQICEHILADPVETNCKHVFCRVCILRCLKVMGSYCPSCRYPCFPTDLES (RAG1 RING domain (UniProt P15918)) | 0
QLRRLQEERTCKVCMDKEVSVVFIPCGHLVVCQECAPSLRKCPICRGIIKGTVRTF (BIRC2 RING domain (UniProt Q13490)) | 0
FASPPDSNFVCSVCHGVLKRPARLPCSHIFCKKCILRWLARQKTCPCCRKEVKRKKVVH (RNF151 RING domain (UniProt Q2KHN1)) | 0
B1 (IRF2BPL RING domain) | 0
QLRRLQEERTCKVCMDKEVSIVFIPCGHLVVCKDCAPSLRKCPICRSTIKGTVRTF (BIRC3 RING domain (UniProt Q13489)) | 0
B2 (TRIM63 RING domain) | 0
B3 (ZNF598 RING domain) | 0
VTLSLTLPITCHICLGKVRQPVICINNHVFCSICIDLWLKNNSQCPACRVPITPENPCK (OBI1 RING domain (UniProt Q5W0B1)) | 0
B4 (ARK2C RING domain) | 0
B5 (MID1 RING domain) | 0

Set 4 — technique: protein binding microarray; molecule type: double-stranded DNA, one strand shown; sample: in vitro; tested at: not given; relative to: not given; direction: higher = stronger binding
Target: Histone acetyltransferase KAT6A, winged helix 1, GST fusion (KAT6A, Homo sapiens, UniProt Q92794, residues 1-85)
Notes: 8-mer, flanks averaged, mean of 2 arrays, mostly near background
Residues (chain): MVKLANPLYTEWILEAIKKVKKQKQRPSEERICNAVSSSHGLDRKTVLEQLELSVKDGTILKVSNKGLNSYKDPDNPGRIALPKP
Strand | E-score
CTCGACCC | 0.106
ATACAAGA | -0.0915
AAGACCTG | -0.199
AGTAATTA | -0.14
CGAGATGA | -0.0528
GCCCGAGC | 0.147
AGCTATGA | -0.185
CAAGAACC | -0.124
CCCTGGTA | -0.153
ATAGATAA | -0.0874
ATGTTAAG | -0.127
AGTCGAAT | -0.191
ACGCCGCC | 0.427
AGAGAGAA | -0.259
CTCTTCTA | -0.0349
CACCTATA | -0.117
ACACGCAG | 0.00479
GAGCCGCA | 0.268
AGCCGCAA | 0.172
CGCCGTGA | 0.4
CAGGTGCC | -0.00021
ATAAATGG | -0.204
ATCGTAGG | -0.0127
AACATGCT | -0.0874
TCCTACGA | -0.177

Set 5 — target: CCNA2, cyclin fold, Cln2 fusion (human); technique: yeast growth competition, sequencing; sample: yeast; notes: weak parent motif; relative to: not given; direction: higher = stronger binding
Starting sequence: FZR1 docking peptide (human); QDYERRLLRQIVI
Substitution | normalised enrichment score
QDYERRLARQIVI [L8A] | 0.407
QDYERRLLRQIAI [V12A] | 1.19
QDYEKRLLRQIVI [R5K] | 0.228
QDYERRLLRQAVI [I11A] | 1.32
QDYERRALRQIVI [L7A] | 1.11
QAYERRLLRQIVI [D2A] | 1.3
QDYERRLLAQIVI [R9A] | 0.244

Set 6 — target: CEBPD, bZIP domain (human); technique: DHFR protein complementation; sample: yeast; relative to: wild-type JUN-FOS pair; direction: higher = stronger binding
Notes: single substitutions, most at no-binding floor
Starting sequence: JUN, bZIP domain (human); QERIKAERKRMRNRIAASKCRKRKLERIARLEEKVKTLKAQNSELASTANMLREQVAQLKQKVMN; partner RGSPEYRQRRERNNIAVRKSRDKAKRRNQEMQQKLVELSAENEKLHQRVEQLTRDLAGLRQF
Substitution | binding fitness
I28A | -1.35 natural log
T37N | -1.31 natural log
A46C | -1.45 natural log
K34C | -1.44 natural log
Q41K | -1.43 natural log
E54G | -1.42 natural log
A46F | -1.32 natural log
L38D | -1.49 natural log
V56F | -1.33 natural log
T37M | -1.14 natural log
A49F | -1.45 natural log

Some of these lines once more (set 3):
Molecule | lacZ reporter activity
KTLSRFGIQPCSICLGDAKDPVCLPCDHVHCLRCLRAWFASEQMICPYCLTALPDEFSPA (RNF213 RING domain (UniProt Q63HN8)) | 0
PEELQAMDNVCIICREEMVTGAKRLPCNHIFHTSCLRSWFQRQQTCPTCRMDVLRASLPA (SYVN1 RING domain (UniProt Q86TM6)) | 0
RLTMMWEEVTCPICLDPFVEPVSIECGHSFCQECISQVGKGGGSVCPVCRQRFLLKNLRP (TRIM21 RING domain (UniProt P19474)) | 0
DAIPSLSECQCGICMEILVEPVTLPCNHTLCKPCFQSTVEKASLCCPFCRRRVSSWTRYH (RNF168 RING domain (UniProt Q8IYW5)) | 0
FPEHFVKSISCQICEHILADPVETNCKHVFCRVCILRCLKVMGSYCPSCRYPCFPTDLES (RAG1 RING domain (UniProt P15918)) | 0
QLRRLQEERTCKVCMDKEVSVVFIPCGHLVVCQECAPSLRKCPICRGIIKGTVRTF (BIRC2 RING domain (UniProt Q13490)) | 0
FASPPDSNFVCSVCHGVLKRPARLPCSHIFCKKCILRWLARQKTCPCCRKEVKRKKVVH (RNF151 RING domain (UniProt Q2KHN1)) | 0
B1 (IRF2BPL RING domain) | 0
QLRRLQEERTCKVCMDKEVSIVFIPCGHLVVCKDCAPSLRKCPICRSTIKGTVRTF (BIRC3 RING domain (UniProt Q13489)) | 0
B2 (TRIM63 RING domain) | 0
